Measured values gathered from unrelated publications.
Each numbered part is a random draw from the data of one study; scales do not carry over between parts. Substitutions count along the parent as printed.

Block 1
Target: RNA binding protein fox-1 homolog 2, RRM domain, GST-SBP tag (RBFOX2, Homo sapiens, UniProt O43251-10, residues 100-194)
Technique: RNA Bind-n-Seq
Form: RNA
Matrix: in vitro
Tested at: 365 nM
Notes: natural RNA segment, single round, ends assumed
Relative to: no-protein control
Reading: higher = stronger binding
All sequences stand within: GGGAGUUCUACAGUCCGACGAUC … UGGAAUUCUCGGGUGCCAA
Residues (chain): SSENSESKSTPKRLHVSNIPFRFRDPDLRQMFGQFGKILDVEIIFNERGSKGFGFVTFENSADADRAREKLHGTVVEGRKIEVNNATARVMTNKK
| Sequence | RBNS enrichment (R) |
| --- | --- |
| CCACACCACACCAGCUGGUGCUGCCCAUGUCUGUCGAAUCAUAACGGAAAAUUCCCCAGAUCACGUUUGGAUUUAAAAACUCAUCCCUUGUCGUGCUUCAAUGCAUGCCA | 0.413 |
| AUAAUACAUGUUCACUUUAUUUUGUAAAAUUGGGUUGAGAGGAAACUAAUGGAGUUUCAUUGUAACUGUCCUUUGUAAUUUAUAUAAAUGUAUUAUUUUCCUAUAUCCUU | 0.672 |
| CAGGCCCACUCAGGAUGCCCAUGCCCAGGGCAGCAGGCUUCUGGGGUUCAGAAUUGUAGCCUCAGCCUGUUUGACAAAGGUCUUGGGAACUCUGUGACUGCUUUGCCCAC | 1.37 |
| CUAGUCCCUCUCCUGCCACCUCUCCAAGACUUCCGUGGGACACCCACUUCCCUCUGUCCUAGUUCUCUUUGUCCAAUCAGAUGGCAAGGGCAGUGCGUGGAAAGGCCGGG | 0.298 |
| CACCCCAAAAGGAGAGAAAAGGAAGAAAACAUUUAUAAAAAGCGACAGCUACCCCCAUAUUCAAAAAUAGUUCUUUUCCCUGUAGGGAAACAGGUAGCUCUCCAUAAGGA | 0.523 |
| UUUUUCCCCCUUGAGGUUAUUGUUUCUUCCUAAUUUAUAUUUCAGAUACAUAGUGUAGAACAGGAAUUUGCAGAAGCCAUUUAAGUUAUCUUUUGAGGUAAGCUCUGAUU | 0.488 |
| CACUUCAGAGUUUGGGGUUUUGUCUUGAUUGUAGAUUGGCCCAGAAUUGCAUUCUGAUGAAUAAAGGAAAAAAAAAAAAAAAAUCCCAUGGUGUGCAUUUCUCUAUGAUG | 1.25 |
| UGCCAAGAGAUGUGAUAUAUAAGUGUAUAUAUUGUGCUGUGUUUGGGACCCUCCUCAUACAGCUCGUGCGGAUCUGCAGUGUGUUCUGACUCUAAUGUGACUGUAUAUAC | 0.483 |
| AGCUAACUUCCUACAAACAUCUGCCUGGAAGAUUAGUAGAAUCCUAAUUCUAGGCUGGAAUGAGCUUCAUGAGGCUUGACAGAGGCUCACUGUCAGCCGUGGCUGGGGGC | 0.762 |
| AGCCGUUGCAGCCCCACGUUGUGCUCUAGGCAGGGACCUUUGGCCCCUUUGGGGAGGGAGAGACAGACGGGCGGUUUGACUUGGACACAAAGAAAGCCUUGGUUUCUAAG | 0.751 |
| CCCUAAUUGUUGAUACUCAUUUUCUCCGUUUGCAAAAUGAAGAUACUCAUUGUUAGGAUCCUACUGCUGAAGGGUGCUAUGUCACUUUCUAGUGCUCUUAUAUGUCUUUA | 0.442 |
| GUCAUGGUGGUGGGUUUCUAUCAUCCUGUCUCUGUUUAAAAGGGACUGAAUAGUUGGGUUUUAAAAGUGCAUGCUAUAAACAGACGAGCAUCCUAGAGCUCACUGAGCAC | 4.42 |

Block 2
Target: RING finger protein unkempt homolog, zinc fingers 1-6, GST-SBP tag (UNK, Homo sapiens, UniProt Q9C0B0, residues 30-357)
Technique: RNA Bind-n-Seq
Form: RNA
Matrix: in vitro
Tested at: not given
Notes: RNA with constant flanks, human and mouse sites, ends assumed
Relative to: input RNA pool
Reading: higher = stronger binding
All sequences stand within: GGGAGUUCUACAGUCCGACGAUC … CAACAGAGGAUUGAGCAUCA
Construct (chain): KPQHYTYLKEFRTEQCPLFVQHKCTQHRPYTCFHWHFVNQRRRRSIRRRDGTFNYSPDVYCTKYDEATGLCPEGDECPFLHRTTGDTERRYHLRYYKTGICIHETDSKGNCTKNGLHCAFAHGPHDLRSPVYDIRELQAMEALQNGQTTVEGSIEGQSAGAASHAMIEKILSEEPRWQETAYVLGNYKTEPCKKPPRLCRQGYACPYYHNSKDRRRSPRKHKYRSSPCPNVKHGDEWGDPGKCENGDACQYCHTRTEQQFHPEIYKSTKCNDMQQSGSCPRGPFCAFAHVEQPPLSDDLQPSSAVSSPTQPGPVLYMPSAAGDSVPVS
| Sequence | bound/input enrichment |
| --- | --- |
| ACUCAGCACCUCAGUGUCGAGACUUCGUACCUUCAGCAUGAGAGUGGCCGCAUUUCCACUAAGUUUGAAUUUGUCCCCAGCCCUGGAAACCAUUUUAUCUGGUAUCGGGGGAAAUGGAUU | 0.184 ratio |
| UGAAACCUUUGGAUAGGGGAAAAAAUUAUAUAUAUAUAUAUUUUUUUGUUCUGUUUGCAUUUCUUAAUUUGUGCUUGGAAUGUGUUGAUGUGCACAGCUAAUGAUUCAAUGCGAGACAAG | 0.391 ratio |
| UUUUCUGUUAACAGUAUUUCUUGUGUGCGUGCUUGUUGGGCAGCCCGUUUGGCUGCGUUAUAUAGCGAGUGAUGAGCUGAUCCUUUCCCCUAAGAGACAUGACUUCCCUCCGUCAGCAUU | 0.531 ratio |
| UCCUCGUCCUCUGACGUCAGUGAGGGCAGGGCAGCUGAAGCAUCUCAGGGAUUUAGAUUUCUUAGGCGAAGAUGGGGGUUGUCGUCGCUCAGCCAAAAUCAUAGCUCUGAACCAGAGGCA | 0.435 ratio |
| AUUUGGGGGGAGAUGACUUUGAAUUUUGUUUGAAAUGCUUCAGUUGUCAUUUUGUCAUUGCAUUUCAAAUAGCUCAUGACCCUUUUCUUGUGGUCACUUUGGCACACCAUAGUAGCCCAC | 0.337 ratio |
| CACAUCAAAGCAAUUCAGAUUAAAGAACAACUUCUUGGUCAAGAAGAUUAUGAAGUAGCCCUUUCAGUGGGACAUCUGGCUUCUUUAUAUAAUUAUGACAUGAAUCAGUAUGAAAAUGCU | 0.94 ratio |
| AAGGCACGCUUGACCUGUCCGUGCUGUAACAUGCGUAAAAAGGAUGCUGUUCUUACUAAGUGUUUUCAUGUCUUCUGCUUUGAGUGUGUGAAGACACGCUAUGACACCCGCCAGCGCAAA | 0.0616 ratio |
| GCGCGCCGGGGCGGGGGCAGCCCUCUCCCAGGCGGCGGUGGGGGCGGCGUCGCUGUUGCCCUUUUAAGCCGCGGGGCCACCGCCUCCUGCGGGUGGAGUCGGUUACAAAGGCAGCAGCCG | 0.258 ratio |
| CGGGAAGCUGUAUGCAUUGUUCUUUCUGAUGACACGUGUUCUGAUGAGAAGAUUCGAAUGAAUAGAGUUGUUCGGAAUAACCUCCGAGUUCGCCUAGGAGAUGUCAUCAGCAUCCAGCCA | 0.156 ratio |
| CUGAAUCUGCCAACCUUCAGUGUUCGAAUCAUUGACAAAAAUGGCAUCCAUGACCUGGAUAACAUUUCCUUCCCCAAACAGGGCUCCUAACAUCAUGUCCUCCCUCCCACUUGCCAGGGA | 0.313 ratio |
| CAGAUUCACAGGGAUUUGAAAGCUGGUAAUAUUCUUCUGGGUGAGGAUGGUUCAGUACAAAUAGCAGAUUUUGGGGUAAGUGCGUUCCUAGCAACAGGGGGUGAUGUUACCCGAAAUAAA | 0.54 ratio |

Block 3
Target: ABI1, truncated, D143A, DHFR fusion (Arabidopsis thaliana)
Technique: DHFR PCA, deep sequencing
Matrix: yeast
Notes: methotrexate growth selection, single substitutions
Added: (+)-ABA 0 µM
Relative to: wild-type fitted maximum
Reading: higher = stronger binding
Starting sequence: PYL1, truncated, DHFR fusion (Arabidopsis thaliana); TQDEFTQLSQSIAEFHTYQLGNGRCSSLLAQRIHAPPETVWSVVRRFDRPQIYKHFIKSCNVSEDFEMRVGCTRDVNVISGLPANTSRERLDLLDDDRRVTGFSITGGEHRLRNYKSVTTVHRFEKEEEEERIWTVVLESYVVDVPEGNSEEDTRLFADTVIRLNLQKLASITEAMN; partner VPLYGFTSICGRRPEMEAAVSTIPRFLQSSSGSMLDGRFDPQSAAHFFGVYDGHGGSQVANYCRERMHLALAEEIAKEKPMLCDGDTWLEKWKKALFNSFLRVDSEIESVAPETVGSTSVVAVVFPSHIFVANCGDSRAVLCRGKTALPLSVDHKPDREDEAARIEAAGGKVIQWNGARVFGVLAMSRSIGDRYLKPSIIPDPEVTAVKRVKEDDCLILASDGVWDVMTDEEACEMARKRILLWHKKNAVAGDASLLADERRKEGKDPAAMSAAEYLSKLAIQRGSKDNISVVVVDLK
| Variant | relative binding score [%] |
| --- | --- |
| Q2S | 25.3 |
| N165S | 8.55 |
| L93Y | 4.72 |
| H34L | 25 |
| N114E | -2.99 |
| Q10V | 1.63 |
| G102W | 6.97 |
| E147K | 3.93 |
| R111F | -1.92 |
| R74D | -0.23 |
| F5L | 40.4 |
| D144P | -2.94 |
| G21L | 6.12 |
| T101G | -3.5 |
| F103C | 2.54 |
| Q7C | 19.8 |
| A13N | 23.3 |
| R98M | 4.72 |

Block 4
Target: Histone acetyltransferase KAT6A, both winged helices, GST fusion (KAT6A, Homo sapiens, UniProt Q92794, residues 1-181)
Technique: protein binding microarray
Form: double-stranded DNA, one strand shown
Matrix: in vitro
Tested at: not given
Notes: 8-mer, flanks averaged, mean of 2 arrays, mostly near background
Relative to: not given
Reading: higher = stronger binding
Target sequence (chain): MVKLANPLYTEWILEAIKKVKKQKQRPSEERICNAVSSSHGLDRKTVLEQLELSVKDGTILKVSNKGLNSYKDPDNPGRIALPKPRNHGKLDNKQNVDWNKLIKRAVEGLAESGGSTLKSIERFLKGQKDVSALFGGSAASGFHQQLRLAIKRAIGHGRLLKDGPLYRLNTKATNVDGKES
| Sequence | E-score |
| --- | --- |
| CATCCGCC | 0.175 |
| AGCTGGAA | -0.204 |
| CTGATAGC | 0.00235 |
| ACAGTACG | 0.0136 |
| GTCAGTGA | -0.0649 |
| CTCCGGCC | 0.129 |
| AGAGTCTG | -0.196 |
| AGAATACG | 0.0533 |
| AAAGCTCA | -0.189 |
| GCTTAAAA | -0.00999 |
| CGGTACAG | 0.202 |
| ATCGGGAC | 0.0643 |
| GGAACATA | -0.126 |
| ACGGGCTG | 0.0837 |
| AACCCGTT | 0.211 |
| ACCAAAGG | -0.247 |
| ACCAGGCA | -0.311 |
| CCGTTCCA | 0.117 |
| AAGAGAAG | -0.0596 |
